Measurements pooled from the literature.
Every numbered part comes from another study and shows a few of its results, in no order.

Series 1 — method: protein-binding microarray; molecule type: double-stranded DNA, one strand shown; matrix: in vitro; tested at: 2200 nM top; setting: 60-bp whole probe; together with: salmon DNA 0.4 mg/ml; baseline: random background probes; direction: higher = stronger binding; constant ends, left off below: GCCTAGCAC … GTCTTGATTCGCTTGACGCTGCTG
Target: Interferon regulatory factor 7, full length, phosphomimetic (IRF7, Homo sapiens, UniProt Q92985, residues 1-503, S471D/S472D/S475D/S476D/S477D/S483D/S484D/S487D)
Sequence of UniProt Q92985 (whole entry, unmodified, looked up): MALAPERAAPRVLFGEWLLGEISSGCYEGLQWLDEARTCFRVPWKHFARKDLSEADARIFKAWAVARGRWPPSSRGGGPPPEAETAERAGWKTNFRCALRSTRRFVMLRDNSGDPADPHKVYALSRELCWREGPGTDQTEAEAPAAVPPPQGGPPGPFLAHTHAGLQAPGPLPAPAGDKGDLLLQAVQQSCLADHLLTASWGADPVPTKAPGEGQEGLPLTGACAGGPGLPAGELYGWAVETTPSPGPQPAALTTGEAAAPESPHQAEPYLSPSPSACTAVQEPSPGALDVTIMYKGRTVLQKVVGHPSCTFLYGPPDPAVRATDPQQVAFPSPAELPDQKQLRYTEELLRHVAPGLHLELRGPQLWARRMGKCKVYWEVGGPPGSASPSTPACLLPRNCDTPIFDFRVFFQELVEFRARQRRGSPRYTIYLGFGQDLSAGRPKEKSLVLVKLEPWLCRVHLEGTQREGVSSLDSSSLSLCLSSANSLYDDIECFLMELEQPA
| Oligonucleotide | fitted relative affinity [z-score] |
| --- | --- |
| TCACCTACAGGTTCTCTGACTGTGCTA | 0.726 |
| TTCTGAACCATTTTGGTTTTGTGCTAG | 0.675 |
| TTAGAACTGGGTTATCGATTAGTGCTA | -0.153 |
| TCAGTTTCCTCTTTCTTACTGTGCTAG | 5.08 |
| TTAGATTTCGGTACTGGATTAGTGCTA | 2.05 |
| ACCATTTTGTTTTTCATTATGTGCTAG | 2.74 |
| GCCGAACTGGGGTTTCGAGACGTGCTA | 0.604 |
| TCATGAGTCCCTATCTCACTGTGCTAG | 1.03 |
| CTTGGGCTCTTCTCTGAAGACGTGCTA | -0.65 |
| GACGGTATCGGGTATCGAGACGTGCTA | -0.121 |
| GACGCTCTCCTTATCCTGACGTGCTAG | 1.86 |
| TTAGGTTTCAGGTATCGGTTAGTGCTA | 3 |
| TTAGAACTGAGTTTCCATTAGTGCTAG | 0.862 |

Series 2 — method: RNAcompete; molecule type: RNA; matrix: in vitro; tested at: 20 nM; setting: 7-mer, probes averaged, single round; baseline: mean of 7-mers; direction: higher = stronger binding
Target: PABPC1L2, full length, GST fusion (mouse, UniProt A0ABA7IW68)
Residues (chain): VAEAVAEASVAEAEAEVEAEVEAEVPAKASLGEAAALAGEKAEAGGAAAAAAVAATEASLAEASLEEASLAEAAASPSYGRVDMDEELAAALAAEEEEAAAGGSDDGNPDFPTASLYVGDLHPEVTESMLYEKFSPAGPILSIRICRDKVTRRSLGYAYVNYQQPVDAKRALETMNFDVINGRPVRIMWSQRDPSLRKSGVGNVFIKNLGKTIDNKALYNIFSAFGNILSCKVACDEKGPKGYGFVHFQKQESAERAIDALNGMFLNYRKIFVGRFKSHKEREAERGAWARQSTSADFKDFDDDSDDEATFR
| Oligonucleotide | 7-mer Z-score |
| --- | --- |
| GCCCGAU | -0.159 |
| CAGAUGU | 0.00436 |
| UUUUUAU | -0.00108 |
| UGGGAUA | 0.234 |
| UCGCGUU | -0.47 |
| AUGUACC | -0.219 |
| UCUACGU | -0.271 |
| AGCCUAU | -0.186 |
| GCCUGCA | -0.0609 |
| CCAAAGA | 0.506 |
| CUGAAUC | -0.322 |
| GCACGAC | -0.166 |

Series 3 — method: RNA Bind-n-Seq; molecule type: RNA; matrix: in vitro; tested at: 100 nM; baseline: input RNA pool; direction: higher = stronger binding
Target: RING finger protein unkempt homolog, zinc fingers 1-6, SBP tag (UNK, Homo sapiens, UniProt Q9C0B0, residues 30-357)
Sequence of UniProt Q9C0B0 (30-357, looked up): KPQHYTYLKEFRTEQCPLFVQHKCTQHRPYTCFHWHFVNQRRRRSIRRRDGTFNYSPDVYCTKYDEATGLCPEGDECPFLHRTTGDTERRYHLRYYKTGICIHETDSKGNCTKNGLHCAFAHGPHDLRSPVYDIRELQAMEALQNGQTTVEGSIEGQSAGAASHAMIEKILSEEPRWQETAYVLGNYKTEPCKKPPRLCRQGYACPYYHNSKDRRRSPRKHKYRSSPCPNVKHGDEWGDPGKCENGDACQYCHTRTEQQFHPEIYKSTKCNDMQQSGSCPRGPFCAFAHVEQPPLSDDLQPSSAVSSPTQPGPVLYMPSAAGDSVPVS
Setting: RNA with constant flanks, vertebrate orthologous sites, ends assumed
| Oligonucleotide | bound/input enrichment [ratio] |
| --- | --- |
| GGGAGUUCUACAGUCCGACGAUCUUUAAAGUCAUUUUUUCAUGUUUCCUGUAAAUAAUGGAUAAUCAUUUUUAUUUUAUUUUUAAGUGCUGUUUUAACAAUGUGGAUAGACCAUAAAUGUACUUGCUGAAUUCAUUCAUUUUUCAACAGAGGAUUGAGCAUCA | 0.424 |
| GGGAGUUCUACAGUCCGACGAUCCAUCUCUCAUUUUAUAUGUCCAAAAAUGGCUUUGAAUUUUAAGCAGUUACUAGUUUUAAUUAGCUCUGCCCUCAUAAAGUGUUAUUAUAAUUCACCGUAACCAGUUAUCUGUCUGAAUUACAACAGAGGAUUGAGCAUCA | 0.821 |
| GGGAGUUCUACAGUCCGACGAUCGGGGCGGUCGGUGGGGAAAUCCCAUGCCCUGGCCUGCCACCCCUCCCUGCCACCCGCUCCUAGUUAUUUUUUUUUUUUAACCACCAUGUGAUUAAGGUCGGCGCUGCCUCCCCCGACCCGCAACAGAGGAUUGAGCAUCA | 3.36 |
| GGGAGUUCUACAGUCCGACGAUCUCCCAGCACUCUGAUAAAAAGUGUGGACUGGUUGCUUGUAUUUUCCUUAUUCUUUUUAAUCAGUUUUAUUAUGUACGCUACCAUUCGAACUGAGAGUAUUCGGUGGCUGAUUCCAGGACACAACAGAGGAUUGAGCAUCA | 0.71 |
| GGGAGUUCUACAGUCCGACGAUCCCGAGGCUUUGUAUUUGGCUGCACUUGCAUAAGCUGCUACAAAUAGUUUAAAGAAUUUCAUAGCCUGUAUCUAUCAUUUAGAUGCAUGGUCAAUGGGCUUUGCACACAAUGGGCUUGGAGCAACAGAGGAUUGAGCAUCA | 0.638 |
| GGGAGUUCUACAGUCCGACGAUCAAAUAUACUUCAUGCCAUGGACUCCAUAUCGCACUGAUACUUUGAUAGAAUAUGCUUCUUUAGAGGACUUCCAAAACGGACGCCAACAGACAACAUAUAAACUUCCAAAUCGAGUGGAUGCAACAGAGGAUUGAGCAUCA | 1.14 |
| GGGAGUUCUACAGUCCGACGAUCGUCUGACUGCUGGAUGAAGACUGUUCCAAGUUAUAACCAAACAAAUCGCUCCAUGGACUUUAGAAAUUAUAUGAUGAGAGACGAGAAUCUGGAGCCGCUGCCCAAAAACUGGGAAAUGGCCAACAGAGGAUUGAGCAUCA | 0.622 |
| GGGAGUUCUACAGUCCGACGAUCAUUAAAUGUGUAUCAAAUGCUGGAUAUAACAUUAAACCAUCAUUUACAAUAGAUGUUAAUUUGUUACAGUUAAGCUACAAAUAGGUUUCCUUAAACCAGAGAUGCACUCCCCUUGUCUGACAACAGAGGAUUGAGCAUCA | 0.204 |
| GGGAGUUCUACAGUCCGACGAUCCGCAUGAGCAUCUAUCCAGUUUUAAGCCACUUCCUGAUAAGGCUCUCCAUGUAUUUAUCCUAUUGACACACCUGUUUUUAUGAAUGGCAGUGUGCGUGCAGAGGGGCUCGGUGUUUACAGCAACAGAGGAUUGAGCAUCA | 0.848 |
| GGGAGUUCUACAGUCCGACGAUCCUAUUGUUAAGCACUGUGUUCCAGACCGUGUCUGACUUUAGUGUAACCUAGGAGAUUUUAUAGUUUUAUUUUAAUGAAAUCCUGCUUGACGCAGAACAGCGGGGAGAGCAGUGUCUUCUACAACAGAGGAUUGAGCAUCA | 2.04 |

Further values, each from its own experiment
| Molecule | target | test | system | conditions | scale | quantity | value |
| --- | --- | --- | --- | --- | --- | --- | --- |
| PhoQ, residues 284 288 289 292 302 303 TAVSDG | PhoP, residues 12 14 15 18 19 NMSSL (Escherichia coli, UniProt P23836) | Sort-seq, measured: YFP reporter | E. coli | PhoQ-PhoP variant library, together with: 10 µM Mg2+ | baseline: high Mg2+ state, higher = stronger signaling | fold induction | 4.61 |
